# Assay results gathered from unrelated publications.
# Every numbered part comes from another study and shows a few of its results, in no order.

# Block 1
# Target: Sal-like protein 4, full length isoform B (SALL4, Homo sapiens, UniProt Q9UJQ4-2, residues 1-616)
# Method: universal PBM
# Form: double-stranded DNA, one strand shown
# Medium: in vitro
# Concentration: not given
# Notes: 8-mer, flanks averaged, mean of replicates
# Reading: higher = stronger binding
Oligonucleotide,E-score
ACGCCCCG,-0.386
TAGTATGA,0.33
ACAAATGC,0.192
CGTGTGCC,-0.277
AACTTAAA,0.235
GACCTGAC,-0.267
CCCCAGCA,-0.138
CTGAGGCC,-0.289
GGCACGAC,-0.181
AATACTTA,0.295
GGAACTCC,-0.248
AGGATAAG,0.0295
GCGCTGAC,-0.232
AGGCGCCA,-0.154
CAGATAGA,0.0026
GCGGTAGC,-0.232
AATAGACG,0.167
TACTGGGA,0.0845
ATTGGAAG,0.0514
GTCCACAC,-0.148
CCTGTGTC,-0.223
TAGAGCAA,-0.0285
CAGTTACG,-0.0741
CAGTGCGG,-0.333

# Block 2
# Target: Interferon regulatory factor 5, full length, phosphomimetic (IRF5, Homo sapiens, UniProt Q13568-2, residues 1-514, S451D/S453D/S456D/S462D)
# Method: protein-binding microarray
# Form: double-stranded DNA, one strand shown
# Medium: in vitro
# Concentration: 940 nM top
# Notes: 60-bp whole probe
# Together with: salmon DNA 0.4 mg/ml
# Relative to: random background probes
# Reading: higher = stronger binding
# All sequences stand within: GCCTAGCAC … GTCTTGATTCGCTTGACGCTGCTG
Oligonucleotide,fitted relative affinity
ACCGCATTCGAATTCAGAATGTGCTAG,-0.317 z-score
TTAGGTTTCGGTTTCAGTTAGTGCTAG,15.3 z-score
TTAGGTATCGGGACGGGGTTAGTGCTA,6.13 z-score
GACGGACTGGGTTTCGAGACGTGCTAG,2.12 z-score
GACGGTTACCTACTGCTGACGTGCTAG,-0.245 z-score
GATGGTTTCGGTTTCGGGACGTGCTAG,15.2 z-score
GACGGTCTCGGATTGGGGACGTGCTAG,0.867 z-score
TTAGATCTCAGTCTCGATTTGTGCTAG,3.03 z-score
CACGGACTGCTACTGCTGACGTGCTAG,-0.594 z-score
TTAGGACTGGACTATCGGTTAGTGCTA,-0.225 z-score
TCAGAAATCAACTTTTTTACTGTGCTA,-0.0878 z-score
GACGGTCTCCTACTGTTGACGTGCTAG,0.233 z-score
TTCGGTATCGGTATCGGTTAGTGCTAG,12 z-score
TTAGGACTGCTTTGCCTTTAGTGCTAG,-0.432 z-score
TTAGATATCAGTTCCGATTAGTGCTAG,1.24 z-score
GACGGTTGCCTTCTCCTGACGTGCTAG,0.279 z-score
TTAGGTATCGGCATCGGTTAGTGCTAG,4.94 z-score
GCCGGTTTCGGTATCGGGACGTGCTAG,15.3 z-score
TTAGGAATGGGTCTCGGTTAGTGCTAG,1.64 z-score

# Block 3
# Target: PABPC1L2, full length, GST fusion (mouse, UniProt A0ABA7IW68)
# Method: RNAcompete
# Form: RNA
# Medium: in vitro
# Concentration: 20 nM
# Notes: 7-mer, probes averaged, single round
# Relative to: mean of 7-mers
# Reading: higher = stronger binding
# Target sequence (chain): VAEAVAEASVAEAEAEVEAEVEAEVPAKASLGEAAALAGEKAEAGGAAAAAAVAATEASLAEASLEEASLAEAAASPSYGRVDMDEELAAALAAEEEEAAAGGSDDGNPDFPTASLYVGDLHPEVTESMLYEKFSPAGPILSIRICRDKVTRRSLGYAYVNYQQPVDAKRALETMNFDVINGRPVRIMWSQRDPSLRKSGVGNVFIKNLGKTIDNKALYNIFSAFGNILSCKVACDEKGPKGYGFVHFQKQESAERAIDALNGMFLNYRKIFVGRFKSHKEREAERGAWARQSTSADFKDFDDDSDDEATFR
Oligonucleotide,7-mer Z-score
CGUUACA,-0.079
CGGGGUC,-0.0337
CACUAAU,-0.219
GCACGUC,-0.255
GGUUCGG,-0.168
AACACAC,0.575
GGAUGCG,0.207
CUCUUUG,-0.458
AUCCACG,-0.211
AAGAAUU,0.249
AGCUGUC,-0.248
AGAGCUA,-0.153
ACACAUA,0.0225
AGACGAA,0.113
CCCACUC,-0.423
CCGGACG,-0.132
CCUGCAA,0.00617
GCAGGGU,0.0895
GACGCAC,-0.13
ACGUACA,0.0696
GCUGUAC,-0.122

# Block 4
# Target: RNA binding protein fox-1 homolog 2, RRM domain, GST-SBP tag (RBFOX2, Homo sapiens, UniProt O43251-10, residues 100-194)
# Method: RNA Bind-n-Seq
# Form: RNA
# Medium: in vitro
# Concentration: 365 nM
# Notes: natural RNA segment, single round, ends assumed
# Relative to: no-protein control
# Reading: higher = stronger binding
# All sequences stand within: GGGAGUUCUACAGUCCGACGAUC … UGGAAUUCUCGGGUGCCAA
# Residues (chain): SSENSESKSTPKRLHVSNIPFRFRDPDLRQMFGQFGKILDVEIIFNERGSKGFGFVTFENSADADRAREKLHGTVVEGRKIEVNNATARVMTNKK
Oligonucleotide,RBNS enrichment (R)
CGUGCUUCCUUUUUUCCUUUCCCAACAGUCCAAGAGCGCAGGAUCCAACUUUCUAGUCACGCUGUUCUGUAUUCAGUCAGCCCACAAGAAUAUGCAAACUCCAUCUCAAA,0.297
UGUGCUUUUUAAUUUCUGCUUGAAUGUUUGUCCUGCUGUGUUGCAGCUUCUAAAGACAUUGUCACCGAGUGUGUGUGACUCAAAGAUCAAGAGUGAGGCUAAACUGCGAC,0.612
UGUAAACUUGGAGGAGAGAUUUUUCUAUCAUGUAGAGUAGGUAUUUUUUAUAGAUUGAAGGUUGAUCAAUUUUUUUAAUACUUUCCAGAGAGAAAACUAUCUGUGUAUAC,0.752
AGACAGCAGCACUAGCAGACGGUCUUAGAACCUUCACACUGUCUCUACCACUACAUGGAAUGACAUAAAAGCAACUUGUAGGCCAGAGGGGUGGGGUGAACCCUUCUGUG,1.43
CUCAGCUGGAUGAGAGGCUGAGAUGGGUGGCCAGCUUGUACACCAGUCCCUGAACUGAGCUGUUUACAGGACUGGGGAGGCUCCACCCAGAAGGCUUUCAUUUGUACUCU,0.615
AAGGAAUUUCCAAAGGAUAAUAUUUUUCUAAUAAAUGCGGCUGCAACCUCCUGUGCAUUUAAUUAAAUAGGCCAAAUUUUUGCUGCUUAGGUCAUCUCAAGGCUGAUACU,1.71
CCCUGACUUGACCUCAGGGCCUGGGGAGGGAAGCACCAUACCAGGGCCAGGAGCUCCAACUCCGACGUGUCAGCCUCUGGGGGAGGGGGGAUUAAGCCUUGAGCUUGGCU,0.55
UGUUCCGUGGGGUUACAUUUGCUUAAGGAUACACCUUACUUUUUAAUAAAUGGUUUUGAUUGUUCAAACUAAUUUCUAGCUACCUGAAUAAUUCACAGAUUAUAGCUUAU,0.419

# A few entries again (block 3):
Oligonucleotide,7-mer Z-score
AUCCACG,-0.211
AAGAAUU,0.249
AGCUGUC,-0.248
AGAGCUA,-0.153
ACACAUA,0.0225
AGACGAA,0.113
CCCACUC,-0.423
CCGGACG,-0.132
CCUGCAA,0.00617
GCAGGGU,0.0895
GACGCAC,-0.13
ACGUACA,0.0696
